Experimental data collected from several papers.
± marks the error that the study gave. In brackets after ≈: the same amount, converted by molar mass. Bridge positions count the residues as written; N and C are the ends. Ends that are not written are not given here. * marks the point of attachment.
Organism: Escherichia coli

Substance	assay	system	conditions	how to read	quantity	result
CC[C@H](C)[C@H](NC(=O)[C@H](CCCNC(=N)N)NC(=O)CNC(=O)[C@H](CC(C)C)NC(=O)[C@H](Cc1ccccc1)NC(=O)[C@H](CCC(N)=O)NC(=O)[C@H](Cc1ccccc1)NC(=O)[C@@H](N)C(C)C)C(=O)N[C@H](C(=O)N[C@@H](Cc1c[nH]cn1)C(=O)N[C@@H](Cc1c[nH]cn1)C(=O)N[C@H](C(=O)NCC(=O)N[C@@H](CC(N)=O)C(=O)N[C@@H](Cc1ccccc1)C(=O)N[C@H](C(=O)N[C@@H](Cc1c[nH]cn1)C(=O)NCC(=O)N[C@@H](Cc1ccccc1)C(=O)N[C@@H](CO)C(=O)N[C@@H](Cc1c[nH]cn1)C(=O)N[C@H](C(=O)N[C@@H](Cc1ccccc1)C(=O)O)C(C)C)C(C)C)C(C)C)[C@@H](C)CC	broth microdilution	K12	37 °C		MIC	> 100 µM
CC(C)(O/N=C(\C(=O)N[C@@H]1C(=O)N2C(C(=O)[O-])=C(C[n+]3ccccc3)CS[C@H]12)c1csc(N)n1)C(=O)O		drug-resistant	64 µg/mL, added: TS-CATH 16 µg/mL		time to complete kill	12 h
Myristoyl-FCPRRYKQIGTGLPGTKCK (disulfide 2-18 (inferred)) (N-myristoyl, disulfide; Myristoyl = CCCCCCCCCCCCCC(=O)*)	antibacterial activity	K-12 MG1655	MBC, 2 h, pH 7.4, 37 °C, added: LPS, peptide:LPS 1:5 w/w		inhibition	25%
CC(C)C[C@H](NC(=O)[C@H](C)NC(=O)[C@H](CC(C)C)NC(=O)[C@H](CCCCN)NC(=O)[C@H](CC(C)C)NC(=O)[C@H](CCCCN)NC(=O)[C@@H](N)CCCCN)C(=O)N[C@@H](C)C(=O)N[C@@H](CCCCN)C(=O)N[C@@H](CC(C)C)C(=O)N[C@@H](C)C(=O)N[C@@H](CC(C)C)C(=O)N[C@@H](CC(C)C)C(=O)N[C@@H](Cc1c[nH]c2ccccc12)C(=O)N[C@@H](CCCCN)C(=O)N[C@@H](C)C(=O)N[C@@H](CC(C)C)C(=O)N[C@@H](C)C(=O)N[C@@H](CC(C)C)C(=O)N[C@@H](CCCCN)C(=O)N[C@@H](CC(C)C)C(=O)N[C@@H](CCCCN)C(=O)N[C@@H](CCCCN)C(=O)N[C@@H](C)C(N)=O	broth microdilution	NCTC 9001	overnight, 37 °C		MIC50	1.11 ± 0.48 µM
CC[C@H](C)[C@H](NC(=O)CN)C(=O)NCC(=O)N[C@@H](CCCCN)C(=O)N[C@@H](Cc1ccccc1)C(=O)N[C@@H](CC(C)C)C(=O)N[C@@H](Cc1c[nH]cn1)C(=O)N[C@@H](CO)C(=O)N[C@@H](C)C(=O)N[C@@H](CCCCN)C(=O)N[C@@H](CCCCN)C(=O)N[C@@H](Cc1ccccc1)C(=O)NCC(=O)N[C@@H](CCCCN)C(=O)N[C@@H](C)C(=O)N[C@@H](Cc1ccccc1)C(=O)N[C@H](C(=O)NCC(=O)N[C@@H](CCC(=O)O)C(=O)N[C@H](C(=O)N[C@@H](CCSC)C(=O)N[C@@H](CC(N)=O)C(=O)N[C@@H](CO)C(=O)O)[C@@H](C)CC)C(C)C		DH5α	24 h, 37 °C		MBC	30 µM (≈ 74 µg/mL)
CC[C@H](C)[C@H](N)C(=O)N[C@@H](CC(C)C)C(=O)N1CCC[C@H]1C(=O)N[C@@H](Cc1c[nH]c2ccccc12)C(=O)N[C@@H](CCCCN)C(=O)N[C@@H](Cc1c[nH]c2ccccc12)C(=O)N1CCC[C@H]1C(=O)N[C@@H](Cc1c[nH]c2ccccc12)C(=O)N[C@@H](Cc1c[nH]c2ccccc12)C(=O)N1CCC[C@H]1C(=O)N[C@@H](Cc1c[nH]c2ccccc12)C(=O)N[C@@H](CCCNC(=N)N)C(=O)N[C@@H](CCCNC(=N)N)C(N)=O	broth microdilution		18 h, 30 clinical isolates		MIC range	0.5 to 8 µg/mL (≈ 0.262 to 4.2 µM)
CC[C@H](C)[C@H](NC(=O)[C@H](CCCNC(=N)N)NC(=O)[C@H](Cc1c[nH]c2ccccc12)NC(=O)[C@H](CCCNC(=N)N)NC(=O)[C@@H](N)CCCCN)C(=O)N[C@@H](CCCNC(=N)N)C(=O)N[C@H](C(=O)N[C@@H](CCCNC(=N)N)C(=O)N[C@H](C(=O)N[C@H](C(=O)N[C@@H](CCCNC(=N)N)C(=O)N[C@@H](CCCCN)C(=O)N[C@@H](CS)C(=O)O)[C@@H](C)CC)C(C)C)C(C)C		ATCC 25922	90, 300, 500 µM, 24 h, biofilm		MBEC	300 µM
ACPIFTKIQGTYRGKAKCK (disulfide 2-18 (inferred)) (disulfide)		K-12 sample A (CGSC sample B)	MBC, 2 h, pH 7.4, 37 °C, added: E. coli K-235 LPS at peptide:LPS 1:5 w/w		antibacterial activity	inhibited
CC(C)C[C@H](NC(=O)[C@H](C)NC(=O)[C@H](CC(C)C)NC(=O)[C@H](CCCCN)NC(=O)[C@H](CCCCN)NC(=O)[C@H](Cc1c[nH]c2ccccc12)NC(=O)[C@H](CC(C)C)NC(=O)[C@H](CC(C)C)NC(=O)[C@H](C)NC(=O)[C@@H]1CCCN1C(=O)[C@H](CCCCN)NC(=O)[C@H](CCCCN)NC(=O)[C@H](CC(C)C)NC(=O)[C@H](C)NC(=O)[C@H](CC(C)C)NC(=O)[C@H](C)NC(=O)[C@H](CC(C)C)NC(=O)[C@H](CCCCN)NC(=O)[C@@H](N)CCCCN)C(=O)N[C@@H](C)C(=O)N[C@@H](CC(C)C)C(=O)N[C@@H](CCCCN)C(=O)N[C@@H](CCCCN)C(=O)N[C@@H](C)C(N)=O	broth microdilution	TOP10	overnight, 37 °C		MIC50	0.47 ± 0.15 µM
O=C(O)c1cn(C2CC2)c2cc(N3CCNCC3)c(F)cc2c1=O		wild type	evolution over 160 generations	baseline: ancestor strain	MIC fold increase	390 fold
O=[N+]([O-])CC1C(c2ccc3ccccc3n2)=CN(Cc2ccc(Cl)cc2)c2ccccc21 (stereo not drawn)	lacZ reporter expression	VirF-independent lacZ control	3 h, 37 °C, 6.2% DMSO, added: 1 mM IPTG		IC50	> 100 µM
CC(C)C[C@H](NC(=O)[C@H](Cc1c[nH]c2ccccc12)NC(=O)[C@H](CCCNC(=N)N)NC(=O)[C@@H](N)Cc1ccccc1)C(=O)N[C@@H](CCCNC(=N)N)C(=O)N[C@@H](CCCCN)C(=O)N[C@@H](Cc1c[nH]c2ccccc12)C(=O)N[C@@H](Cc1ccccc1)C(=O)N[C@@H](CCCNC(=N)N)C(=O)N[C@@H](CCCNC(=N)N)C(=O)O	bacterial killing, colony count	BL21	1 h, pH 7, 37 °C		EC50	2.9 µg/mL (≈ 1.87 µM)
CC(C)C[C@H](NC(=O)[C@H](C)NC(=O)[C@H](CCCCN)NC(=O)[C@H](C)NC(=O)[C@H](CC(C)C)NC(=O)[C@H](CCCCN)NC(=O)[C@H](CC(C)C)NC(=O)[C@H](Cc1c[nH]c2ccccc12)NC(=O)[C@H](CC(C)C)NC(=O)[C@H](CC(C)C)NC(=O)[C@H](C)NC(=O)[C@@H]1CCCN1C(=O)[C@H](CC(C)C)NC(=O)[C@H](CCCCN)NC(=O)[C@H](CC(C)C)NC(=O)[C@H](C)NC(=O)[C@H](CCCCN)NC(=O)[C@H](C)NC(=O)[C@H](CC(C)C)NC(=O)[C@H](CCCCN)NC(=O)[C@@H](N)CCCCN)C(=O)N[C@@H](CCCCN)C(=O)N[C@@H](CCCCN)C(=O)N[C@@H](C)C(N)=O	broth microdilution	TOP10	overnight, 37 °C		MIC50	0.82 ± 0.03 µM
GIGKWLHSAKKFGKAFVGEIMNS-NH2 (C-amide)	bacterial growth, broth microdilution	peptide, TOP10, Mueller-Hinton broth	overnight, 37 °C		MIC50	1.25 ± 0.28 µg/mL
CC(C)C[C@H](NC(=O)[C@H](C)NC(=O)[C@H](CCCCN)NC(=O)[C@H](C)NC(=O)[C@H](CC(C)C)NC(=O)[C@H](CCCCN)NC(=O)[C@H](CC(C)C)NC(=O)[C@H](Cc1c[nH]c2ccccc12)NC(=O)[C@H](CC(C)C)NC(=O)[C@H](CC(C)C)NC(=O)[C@H](C)NC(=O)[C@H](CC(C)C)NC(=O)[C@H](CC(C)C)NC(=O)[C@H](CCCCN)NC(=O)[C@H](CC(C)C)NC(=O)[C@H](C)NC(=O)[C@H](CCCCN)NC(=O)[C@H](C)NC(=O)[C@H](CC(C)C)NC(=O)[C@H](CCCCN)NC(=O)[C@@H](N)CCCCN)C(=O)N[C@@H](CCCCN)C(=O)N[C@@H](CCCCN)C(=O)N[C@@H](C)C(N)=O	broth microdilution	NCTC 9001	overnight, 37 °C		MIC50	13.05 ± 0.13 µM
CC[C@H](C)[C@@H]1NC(=O)[C@H](CCC(=O)O)NC(=O)[C@@H]2CSSC[C@@H]3NC(=O)[C@H](Cc4ccc(O)cc4)NC(=O)[C@@H](NC(=O)[C@@H](NC(=O)[C@H](C)N)[C@@H](C)O)CSSC[C@@H](C(=O)N[C@@H](CCCNC(=N)N)C(=O)O)NC(=O)[C@H](CSSC[C@H](NC(=O)[C@H](CCCNC(=N)N)NC(=O)CNC(=O)[C@H]([C@@H](C)O)NC(=O)[C@H](CCCNC(=N)N)NC3=O)C(=O)N[C@@H](C)C(=O)N[C@@H]([C@@H](C)O)C(=O)N[C@@H](CCCNC(=N)N)C(=O)N[C@@H](CCC(=O)O)C(=O)N[C@@H](CO)C(=O)N[C@@H](CC(C)C)C(=O)N[C@@H](CO)C(=O)NCC(=O)N[C@@H](C(C)C)C(=O)N2)NC(=O)[C@H](CC(C)C)NC(=O)[C@H](CCCNC(=N)N)NC(=O)[C@H](Cc2ccc(O)cc2)NC(=O)[C@H](CC(C)C)NC(=O)[C@H](CCCNC(=N)N)NC(=O)CNC(=O)[C@H](CO)NC1=O	antimicrobial	ATCC 25922	pH 7.4, 1% TSB	99.99% killing	lethal concentration	~4 µM
CCCCN1C=C(c2ccc3ccccc3n2)C(C[N+](=O)[O-])c2ccccc21 (stereo not drawn)	lacZ reporter expression	VirF-independent lacZ control	3 h, 37 °C, 6.2% DMSO, added: 1 mM IPTG		IC50	> 100 µM
CC(C)C[C@H](NC(=O)[C@H](C)NC(=O)[C@H](CCCCN)NC(=O)[C@H](C)NC(=O)[C@H](CC(C)C)NC(=O)[C@H](CCCCN)NC(=O)[C@H](CC(C)C)NC(=O)[C@H](Cc1c[nH]c2ccccc12)NC(=O)[C@H](CC(C)C)NC(=O)[C@@H]1CCCN1C(=O)[C@H](C)NC(=O)[C@H](CC(C)C)NC(=O)[C@H](CC(C)C)NC(=O)[C@H](CCCCN)NC(=O)[C@H](CC(C)C)NC(=O)[C@H](C)NC(=O)[C@H](CCCCN)NC(=O)[C@H](C)NC(=O)[C@H](CC(C)C)NC(=O)[C@H](CCCCN)NC(=O)[C@@H](N)CCCCN)C(=O)N[C@@H](CCCCN)C(=O)N[C@@H](CCCCN)C(=O)N[C@@H](C)C(N)=O	broth microdilution	TOP10	overnight, 37 °C		MIC50	0.8 ± 0.01 µM

Some of these lines once more:
Substance	assay	system	conditions	how to read	quantity	result
CC(C)(O/N=C(\C(=O)N[C@@H]1C(=O)N2C(C(=O)[O-])=C(C[n+]3ccccc3)CS[C@H]12)c1csc(N)n1)C(=O)O		drug-resistant	64 µg/mL, added: TS-CATH 16 µg/mL		time to complete kill	12 h
Myristoyl-FCPRRYKQIGTGLPGTKCK (disulfide 2-18 (inferred)) (N-myristoyl, disulfide; Myristoyl = CCCCCCCCCCCCCC(=O)*)	antibacterial activity	K-12 MG1655	MBC, 2 h, pH 7.4, 37 °C, added: LPS, peptide:LPS 1:5 w/w		inhibition	25%
